Measurements of several laboratories.
A part holds a random share of what one study measured.

Study 1
Target: Sal-like protein 4, full length isoform A (SALL4, Homo sapiens, UniProt Q9UJQ4, residues 1-1053)
UniProt Q9UJQ4, sequence (whole entry, looked up): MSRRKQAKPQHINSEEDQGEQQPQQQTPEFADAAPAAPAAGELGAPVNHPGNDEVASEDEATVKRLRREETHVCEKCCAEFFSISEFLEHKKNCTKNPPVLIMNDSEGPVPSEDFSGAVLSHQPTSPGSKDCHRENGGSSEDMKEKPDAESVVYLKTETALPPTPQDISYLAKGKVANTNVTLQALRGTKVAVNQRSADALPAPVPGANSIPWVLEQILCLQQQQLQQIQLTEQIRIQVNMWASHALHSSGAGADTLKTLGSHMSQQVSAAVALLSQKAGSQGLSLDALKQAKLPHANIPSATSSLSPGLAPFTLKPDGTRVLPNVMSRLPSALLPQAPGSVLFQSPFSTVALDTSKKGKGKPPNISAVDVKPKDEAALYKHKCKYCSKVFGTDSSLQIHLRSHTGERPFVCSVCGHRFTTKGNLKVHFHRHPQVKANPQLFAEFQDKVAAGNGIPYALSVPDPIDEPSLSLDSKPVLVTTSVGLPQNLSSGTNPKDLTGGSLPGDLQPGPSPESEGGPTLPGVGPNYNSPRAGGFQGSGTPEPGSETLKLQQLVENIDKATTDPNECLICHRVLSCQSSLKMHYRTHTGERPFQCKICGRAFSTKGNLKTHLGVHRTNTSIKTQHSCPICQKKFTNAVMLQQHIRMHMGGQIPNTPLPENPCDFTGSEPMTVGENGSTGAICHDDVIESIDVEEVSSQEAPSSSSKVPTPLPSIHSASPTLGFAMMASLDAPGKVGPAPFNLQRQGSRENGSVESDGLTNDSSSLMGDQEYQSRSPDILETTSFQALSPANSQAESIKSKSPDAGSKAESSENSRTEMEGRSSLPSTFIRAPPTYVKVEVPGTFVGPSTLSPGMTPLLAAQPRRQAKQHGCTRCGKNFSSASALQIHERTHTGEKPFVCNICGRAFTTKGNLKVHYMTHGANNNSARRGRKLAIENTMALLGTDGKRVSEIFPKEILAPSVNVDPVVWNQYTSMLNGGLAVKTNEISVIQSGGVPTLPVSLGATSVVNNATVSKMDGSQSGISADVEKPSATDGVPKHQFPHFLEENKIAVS
Method: universal PBM
Form: double-stranded DNA, one strand shown
Matrix: in vitro
Tested at: 600 nM
Setting: 8-mer, flanks averaged, mean of replicates
Direction: higher = stronger binding
The E-score of `CGCGGTCA` is reported as -0.301.
For `ACTCGGAG`, the E-score was -0.0699.
`GCATCGCA` has an E-score of -0.171.
With `CATCCCGG` the E-score was -0.256.
The E-score of `ACCGAAAG` is reported as 0.0992.
The E-score of `CGCGCGCG` is reported as -0.33.
`AAACTGTC` gave an E-score of 0.0382.
`CGTGATCC` has an E-score of -0.322.
`AGCGTTCG` gave an E-score of -0.237.
For `CATTCAGC`, the E-score was -0.0605.
With `AGTCTCTA` the E-score was 0.0484.
`AACCGATT` gave an E-score of 0.0168.
With `CCCTTGCG` the E-score was -0.324.
With `GATCCGGA` the E-score was -0.231.
`GCAAATCC` gave an E-score of -0.0213.
For `AAAACACG`, the E-score was 0.105.

Study 2
Target: RNA binding protein fox-1 homolog 2, RRM domain, GST-SBP tag (RBFOX2, Homo sapiens, UniProt O43251-10, residues 100-194)
Method: RNA Bind-n-Seq
Form: RNA
Matrix: in vitro
Tested at: 365 nM
Setting: natural RNA segment, single round, ends assumed
Reference: no-protein control
Direction: higher = stronger binding
All sequences stand within: GGGAGUUCUACAGUCCGACGAUC … UGGAAUUCUCGGGUGCCAA
Construct (chain): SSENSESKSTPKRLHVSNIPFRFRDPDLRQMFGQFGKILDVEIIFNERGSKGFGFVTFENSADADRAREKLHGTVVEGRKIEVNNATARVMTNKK
For `CAUGCCGACCACAAAGGUGUCUGCGGAAACUCGAGGACAUUCACCACGAUGAUUUUCCUCUCUUUGAUGUACUUCAAGUGCAACUCAAAACUAUAUCUGCAGGGAUGAAU`, “RBNS enrichment (R)” read 0.24.
For `CCAAGCAGGGCCUGCCCUGACAGUUCCACUUUACUCCCAUAUUCUCCCCGUGCUCCUGGCGAGCCUGAGCUUGCCACCCGGUUCUCCCUGCCCGACUCCAGCUGCCCAAG`, “RBNS enrichment (R)” read 0.618.
Under “RBNS enrichment (R)”, `UGUAAAUAUGGAGUAAGUAUUGUAAACUAUUUAAUUGCUGCGAUUGUUGGGUUAUACAUACAUUUAGGACUGCAAUUUUUUGGUAUUUUUUGUAUUGUAAAAUAACAGCU` is recorded as 1.84.
`GUGAGUACCACAGAAACGCCUGAGAGUCACUUACCCGGCCACUGCUUGGAAGGUUUCCCUCCGGGGAAUGCCUCCCUGGAAUGUUCCAGAGACGGAACAUUCUCUAGAGA`: “RBNS enrichment (R)” 0.212.
`UUUGUGCACACACACAGGGCUCUUGUGUGUGUUGUCAAGGGGACCCUCCGUGGCCUCCCGUGAGUGCAUGCCUGUAGUGCACAGUGUCUCUACAGGUGUCUUCUGGGGGG` — result for “RBNS enrichment (R)”: 0.223.
`AGUUCACUGUUGUACACAGUCUGUUUUCUAUUUGUUAAGAAAAACUACAGCAUCAUUGCAUAAUUCUUGAUGGUAAUAAAUUUGAAUAAUCAGAUUUCUUACAAACCAGG` — result for “RBNS enrichment (R)”: 1.51.
`CUGAAAAGUAUAAGAAUACAAUUUACUUUUCCCAAACUCUUUUUCCUUAUUUUUUUCUUUCAAAUAACUUUAAUUAUUUAAUCCCAUACUGAUUAAAAUAUGUCUGUCUA` — result for “RBNS enrichment (R)”: 1.11.
Under “RBNS enrichment (R)”, `AUAAUUACAUUGGCACAAUGUAUACUUCAGUGCUCACCCGUAGGCAAAUCUCUUUUUAAAAAACUCUUUGGUGCACAAGUAACACAUUUGGCCACAAAACACCAAAGAAU` is recorded as 0.51.

Study 3
Target: Interferon regulatory factor 5, full length, phosphomimetic (IRF5, Homo sapiens, UniProt Q13568-2, residues 1-514, K96S/S451D/S453D/S456D/S462D)
Method: protein-binding microarray
Form: double-stranded DNA, one strand shown
Matrix: in vitro
Tested at: 250 nM
Setting: 60-bp whole probe
Added: salmon DNA 0.4 mg/ml
Reference: random background probes
Direction: higher = stronger binding
All sequences stand within: GCCTAGCAC … GTCTTGATTCGCTTGACGCTGCTG
`TCAATTTTTACCCTCCTACTGTGCTAG` gave a log fluorescence of 0.565 z-score.
With `TGCTTTCTTTAACTCATTTTGTGCTAG` the log fluorescence was 2.67 z-score.
For `ATAAACTTAGTTTTCAATTTGTGCTAG`, the log fluorescence was 1.41 z-score.
For `CACGGTTTCCTACTGCTGACGTGCTAG`, the log fluorescence was 0.372 z-score.
For `GACGATATCAGTTTCTAGACGTGCTAG`, the log fluorescence was 2.57 z-score.
`AATTTTTACTTTCTGAATGCGTGCTAG` has a log fluorescence of 4.68 z-score.
For `GATGATTTCAGTCTCGAGACGTGCTAG`, the log fluorescence was 1.86 z-score.
`GACGGTATCCTTTTCCGGACGTGCTAG` gave a log fluorescence of 0.319 z-score.
`TCACGTCTGAGCTCCGTACTGTGCTAG` gave a log fluorescence of -0.323 z-score.
`TTACATTTCAGACTGGATTAGTGCTAG` has a log fluorescence of 0.921 z-score.
The log fluorescence of `GACGATCTCAGACTGGAGAGGTGCTAG` is reported as -0.123 z-score.
`GACGATATCGGGACCGGAGACGTGCTA` gave a log fluorescence of 1.21 z-score.
The log fluorescence of `TCATCTTTTCTGTTGTCACTGTGCTAG` is reported as 1.98 z-score.
For `GACGGTTCGCTTTTCCTGACGTGCTAG`, the log fluorescence was 0.2 z-score.
With `TCAATTTCTGTTTTTGCACTGTGCTAG` the log fluorescence was 4.88 z-score.
`GACGGTATCGGTATCGGGATGTGCTAG` gave a log fluorescence of 6.58 z-score.
`TTAGATATCAGTATCGATAAGTGCTAG` gave a log fluorescence of 7.74 z-score.
The log fluorescence of `TGTTTCCTCTTTCTTTGCTTGTGCTAG` is reported as 2.02 z-score.
With `TTAGGACTGCTACTGGTTTAGTGCTAG` the log fluorescence was -0.361 z-score.

Study 4
Target: Fragile X messenger ribonucleoprotein 1, C-terminal low-complexity region (Fmr1, Mus musculus, UniProt P35922)
Method: RNA Bind-n-Seq
Form: RNA
Matrix: in vitro
Tested at: 200 nM
Setting: whole 134-nt RNA, ends assumed
Added: 150 mM LiCl
Reference: input library
Direction: higher = stronger binding
Library: 7-deaza-guanosine replaces G
All sequences stand within: GGGAGUUCUACAGUCCGACGAUC … UGGAAUUCUCGGGUGUCAAGG
The log2 enrichment of `AGUCCUGUGCUACACAUCGUAUGUACCGAAUCAAAUUUAAACCCCCCCAAAUUUAAAAAAGUAUUAUGUUACGCCGUUCGGAUCUGCACU` is reported as 0.886.
`GCAGGAAGUAAAAACAAAUGGAAAUGCUUCGGAUAGUGGCAGGGGUGGGGGUUGCUAAGGAAAGGGUGGCAUGGGAGUGGGUAAAGAGUU` has a log2 enrichment of 1.51.
`GCAGGAAGUAAAAACAAAUGGAAAUGCUUCGGAUAGUGGCAGGGGUGGGGGUUGCUAAGGAAAGGGUGAGAUGGGAGUGGGUAAAGAGUU` gave a log2 enrichment of 1.39.
The log2 enrichment of `UGUUCUGCAGAGGGGCGGUGUCAUUACUGAUGAAGAGGAAACCUCUAAGAAGAUAGCUGACCAGUUGGACAACAUUGUGGACAUGCGCGA` is reported as -3.64.
With `CCUCAAGUCCUGUGCUACACAUCGUAUGUACCGAAUCGGAGGGGAGGGGAGGGAAAGUAUUAUGUUACGCCGUUCGGAUCUGCACUUCCA` the log2 enrichment was -0.615.
`GCAGGAAGUAAAAACAAAUGGAUAUGCUUCGGAUAGUGGCAGGGGUGGGGGUUGCUAAGGAAAGGGUGGGAUGGGAGUGGGUAAAGAGUU` gave a log2 enrichment of 1.81.
For `AGUCCUGUGCUACACAUCGUAUGUACCGAAUCGGGGAAAAGGGAAAAGGGGAAAAGGAAAGUAUUAUGUUACGCCGUUCGGAUCUGCACU`, the log2 enrichment was -0.8.
`UCCUGUGCUACACAUCGUAUGUACCGAAUCGGGGUUUGGGGAAAAAGGGGUUUUUGGGGAAAGUAUUAUGUUACGCCGUUCGGAUCUGCA` has a log2 enrichment of -0.678.

Study 5
Target: Histone acetyltransferase KAT6A, winged helix 2, GST fusion (KAT6A, Homo sapiens, UniProt Q92794, residues 85-181)
Method: protein binding microarray
Form: double-stranded DNA, one strand shown
Matrix: in vitro
Tested at: not given
Setting: 8-mer, flanks averaged, mean of 2 arrays, mostly near background
Reference: not given
Direction: higher = stronger binding
Construct (chain): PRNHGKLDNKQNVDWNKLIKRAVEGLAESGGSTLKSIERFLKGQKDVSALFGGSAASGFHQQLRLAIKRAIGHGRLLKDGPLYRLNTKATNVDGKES
With `GGTACCCA` the E-score was 0.0745.
For `CCATTGTC`, the E-score was -0.124.
The E-score of `CTTAGTAC` is reported as 0.0295.
`CAGTATCC` has an E-score of -0.123.
`AAGCCTGG` has an E-score of 0.0269.
`CGGAGGAG` gave an E-score of -0.141.
`CCTACTTA` gave an E-score of -0.206.
For `CACTTGCC`, the E-score was -0.0453.
With `GGGGGGTA` the E-score was -0.0999.
`ATATTTGC` gave an E-score of 0.0136.
The E-score of `CGTGGTAG` is reported as -0.155.
For `ACTTCGAT`, the E-score was 0.0394.
`CCAACAGA` gave an E-score of 0.0121.
The E-score of `CGCTGCAA` is reported as 0.0629.
The E-score of `AACCATGG` is reported as -0.0306.
For `AAACCCAG`, the E-score was 0.119.
For `GTAAACAA`, the E-score was -0.055.
For `GTCATCAA`, the E-score was -0.0994.
The E-score of `GACGCTCC` is reported as 0.0882.
With `CGTGGTCA` the E-score was -0.144.
For `TAGGGATA`, the E-score was -0.00622.
With `AACATCAA` the E-score was -0.0364.
`CACCGACA` has an E-score of 0.0749.
`TACATAGA` has an E-score of -0.14.
The E-score of `ACTTCCGG` is reported as -0.0403.
